# Published values collected from several papers.
# Compare with care: the assays were run in different laboratories. Numbers after ± are the reported error.
# Sequence of UniProt Q99895 (whole entry, looked up): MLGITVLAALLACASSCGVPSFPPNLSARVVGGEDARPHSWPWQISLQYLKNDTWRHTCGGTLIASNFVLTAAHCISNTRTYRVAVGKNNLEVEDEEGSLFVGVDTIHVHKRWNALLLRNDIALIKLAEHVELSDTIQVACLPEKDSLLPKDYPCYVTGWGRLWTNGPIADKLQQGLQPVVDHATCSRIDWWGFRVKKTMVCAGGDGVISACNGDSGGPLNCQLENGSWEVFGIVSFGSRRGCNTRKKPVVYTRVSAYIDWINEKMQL
SMILES,target or system,test,system,setting,measurement,value
CC[C@H](C)[C@H](NC(=O)[C@H](CO)NC(=O)[C@H](Cc1ccc(O)cc1)NC(=O)[C@H](Cc1ccc(O)cc1)NC(=O)[C@H](CC(N)=O)NC(=O)CNC(=O)[C@H](CO)NC(=O)[C@H](Cc1ccc(O)cc1)NC(=O)[C@H](CO)NC(=O)[C@H](CO)NC(=O)[C@H](CC(N)=O)NC(=O)COCCOCCNC(=O)CN1CCN(CC(=O)O)CCN(CC(=O)O)CCN(CC(=O)O)CC1)C(=O)N[C@@H](CC(C)C)C(N)=O [copper-64 labelled],,dynamic PET,"KPC mouse Ptf1a-CreER tdTomato, pancreas","intravenous, 4.6 MBq/mouse, 5.5 min, 84 d after tamoxifen",tissue uptake,13 %ID/mL
N=C(N)NCCC[C@@H]1NC(=O)[C@H](CCCCNC(=O)CCC(NC(=S)Nc2ccc(CC3CN(CC(=O)O)CCN(CC(=O)O)CCN(CC(=O)O)CCN3CC(=O)O)cc2)C(=O)NCCCC[C@@H]2NC(=O)[C@@H](Cc3ccc(O)cc3)NC(=O)[C@H](CC(=O)O)NC(=O)CNC(=O)[C@H](CCCNC(=N)N)NC2=O)NC(=O)[C@@H](Cc2ccc(O)cc2)NC(=O)[C@H](CC(=O)O)NC(=O)CNC1=O (some centres unmarked) [scandium-44 labelled],,PET imaging ROI,"female athymic nude mice, U-87 MG xenograft, liver","intravenous, 4 h, added: cRGD 50 mg/kg blocking",tissue uptake,0.05 ± 0.01 %ID/g
CSCC[C@@H]1NC(=O)[C@@H]2CCCN2C(=O)[C@H](C(C)C)NC(=O)[C@@H](NC(=S)Nc2ccc(CC3CN(CC(=O)O)CCN(CC(=O)O)CCN3CC(=O)O)cc2)CSSC[C@@H](C(=O)O)NC(=O)[C@H](C)NC(=O)[C@H](CCCNC(=N)N)NC(=O)[C@H](Cc2ccc(O)cc2)NC(=O)[C@H]([C@@H](C)O)NC1=O (some centres unmarked) [gallium-68 labelled],,PET,mouse B16-F10 tumour,"intravenous, 1 h",tumour to liver ratio,1.18 ± 0.23
CC(C)C[C@@H]1NC(=O)[C@H](CC(C)C)NC(=O)[C@H](CC(C)C)NC(=O)[C@H](Cc2c[nH]c3ccccc23)NC(=O)[C@@H]2CSSC[C@@H]3NC(=O)[C@H]([C@@H](C)O)NC(=O)[C@H](CC(N)=O)NC(=O)[C@H](CSSC[C@@H](C(=O)N[C@@H](CC(=O)O)C(=O)N[C@@H](CCC(N)=O)C(=O)O)NC1=O)NC(=O)[C@H](CCCCN)NC(=O)[C@H](CC(=O)O)NC(=O)[C@H](CCCCN)NC(=O)[C@H](Cc1ccccc1)NC(=O)[C@H]([C@@H](C)O)NC(=O)[C@H]([C@@H](C)O)NC(=O)CNC(=O)[C@@H]1CCCN1C(=O)[C@H](CCC(=O)O)NC(=O)[C@@H](NC(=O)[C@@H](NC(=O)[C@@H](NC(=O)[C@H](CCC(=O)O)NC(=O)[C@H](CO)NC(=O)CN)C(C)C)[C@@H](C)O)CSSC[C@H](NC(=O)[C@H](CCCNC(=N)N)NC3=O)C(=O)NCC(=O)N[C@@H](CO)C(=O)N[C@@H](CC(=O)O)C(=O)NCC(=O)N[C@@H](CCCCN)C(=O)N[C@@H](CO)C(=O)N[C@@H](C)C(=O)N[C@@H](Cc1c[nH]c3ccccc13)C(=O)N2,"Chymotrypsin-C (Homo sapiens, UniProt Q99895)","substrate, LC-MS",,"15 µM, pH 8.0, 25 °C",time to full digestion,≤ 2 days
CN[C@H](CC(C)C)C(=O)N[C@H]1C(=O)N[C@@H](CC(N)=O)C(=O)N[C@H]2C(=O)N[C@H]3C(=O)N[C@H](C(=O)N[C@H](C(=O)O)c4cc(O)cc(O)c4-c4cc3ccc4O)[C@H](O)c3ccc(c(Cl)c3)Oc3cc2cc(c3O[C@@H]2O[C@H](CO)[C@@H](O)[C@H](O)[C@H]2O[C@H]2C[C@](C)(NCc3ccc(OCc4cn(CC(=O)N[C@H](C(=O)N[C@@H](CCN)C(=O)N[C@H]5CCNC(=O)[C@H]([C@@H](C)O)NC(=O)[C@H](CCN)NC(=O)[C@H](CCN)NC(=O)[C@H](CC(C)C)NC(=O)[C@@H](CC(C)C)NC(=O)[C@H](CCN)NC5=O)[C@@H](C)O)nn4)c(OC)c3)[C@H](O)[C@H](C)O2)Oc2ccc(cc2Cl)[C@H]1O,ciPTEC overexpressing OAT-1,,,"24 h, 37 °C, serum-free medium",TC50,230 µM
CC(=O)N[C@@H](CC(C)C)C(=O)N[C@H](C(=O)N[C@@H](Cc1ccccc1)C(=O)N[C@]1(C)CCCCCC/C=C/CCC[C@@](C)(C(=O)N[C@@H](C)C(=O)N[C@@H](C)C(=O)N[C@@H](C)C(=O)N[C@@H](C)C(=O)N[C@@H](C)C(=O)N[C@H](C)C(N)=O)NC(=O)[C@H](CC(C)C)NC(=O)[C@H](CCCCNC(=O)CCNC(=O)C[C@@H]2N=C(c3ccc(Cl)cc3)c3c(sc(C)c3C)-n3c(C)nnc32)NC(=O)[C@H](C)NC(=O)[C@H](Cc2c[nH]c3ccccc23)NC(=O)[C@H](Cc2ccc(O)cc2)NC(=O)[C@H](C)NC1=O)[C@@H](C)O,,,"C57BL/6 mouse, blood","intravenous, 3 mg/kg twice weekly, 3 weeks",lymphocytes,71.1%
CCCC[C@H](NC(=O)CN1CCC(NC(=S)Nc2ccc(C[C@H]3CN(CC(N)=O)CCN(CC(N)=O)CCN(CC(N)=O)CCN3CC(N)=O)cc2)CC1)C(=O)N[C@H]1CC(=O)NCCCC[C@@H](C(N)=O)NC(=O)[C@H](Cc2c[nH]c3ccccc23)NC(=O)[C@H](CCCNC(=N)N)NC(=O)[C@@H](Cc2ccccc2)NC(=O)[C@H](Cc2c[nH]cn2)NC1=O [lead-203 labelled],,SPECT/CT,"male C57BL/6J mice, B16-F10 tumour, liver","intravenous, 20 pmol, 2 h, 203Pb-labelled",SUVmean,7.51 SUV
CC[C@H](C)[C@@H]([C@@H](CC(=O)N1CCC[C@H]1[C@H](OC)[C@@H](C)C(=O)N[C@H](C)[C@@H](O)c1ccccc1)OC)N(C)C(=O)[C@@H](NC(=O)[C@H](C(C)C)N(C)C(=O)OCc1ccc(NC(=O)[C@H](CCCNC(N)=O)NC(=O)[C@@H](NC(=O)CCCCCN2C(=O)CC(SC[C@H](NC(=O)[C@H](CC(=O)O)NC(=O)[C@H](Cc3ccc(O)cc3)NC(=O)[C@H](Cc3c[nH]c4ccccc34)NC(=O)[C@@H](N)CCCNC(=N)N)C(=O)O)C2=O)C(C)C)cc1)C(C)C (some centres unmarked),,,"C57BL/6 mouse, healthy, heart","intraperitoneal, 2.5 mg/kg, 0.167 h",concentration,not detected
